Published values from different studies.
Numbered parts are unrelated; each lists some results of a single study. Substitutions count along the parent as printed.

Series 1
Target: CCNB2, cyclin fold, Cln2 fusion (human)
Method: yeast growth competition, sequencing
Medium: yeast
Setting: weak parent motif
Relative to: not given
Direction: higher = stronger binding
Starting sequence: E2F1 docking peptide (human); PPVKRRLDLETDH; partner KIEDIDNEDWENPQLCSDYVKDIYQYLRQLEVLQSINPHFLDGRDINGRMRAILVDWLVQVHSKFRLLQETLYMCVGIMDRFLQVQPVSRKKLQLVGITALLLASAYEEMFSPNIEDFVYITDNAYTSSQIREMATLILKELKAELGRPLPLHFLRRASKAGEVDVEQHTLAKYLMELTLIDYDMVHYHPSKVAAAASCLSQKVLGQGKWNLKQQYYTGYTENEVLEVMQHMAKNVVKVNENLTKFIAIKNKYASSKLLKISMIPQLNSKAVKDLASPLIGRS
Variant | normalised enrichment score
QPVKRRLDLETDH [P1Q] | 0.401
PPVKRRWDLETDH [L7W] | 0.246
PPVKRRNDLETDH [L7N] | -0.0108
EPVKRRLDLETDH [P1E] | 0.182
PPVKRRLDLETQH [D12Q] | 0.855
PPVKRRLDLLTDH [E10L] | 0.788
PPYKRRLDLETDH [V3Y] | 0.242
PPVKRRLDLTTDH [E10T] | 0.319
PPLKRRLDLETDH [V3L] | -0.63
PPVKRRLDLETDW [H13W] | 0.45
PPVKRRLDLETGH [D12G] | 0.257
PPVKRYLDLETDH [R6Y] | 0.199
PPVKRRLDLEWDH [T11W] | 1.48
PPVKFRLDLETDH [R5F] | -0.0306
PPVCRRLDLETDH [K4C] | 0.235
PPVKRRLMLETDH [D8M] | 0.418
PPTKRRLDLETDH [V3T] | 0.14
PPVKRALDLETDH [R6A] | -0.0812
PPVKRRLDLETTH [D12T] | 0.0828
PPVKRQLDLETDH [R6Q] | 0.201

Series 2
Molecule: PhoQ, residues 284 288 289 292 302 303 AGCYAI
Method: Sort-seq
Refers to: YFP reporter
Medium: E. coli
Setting: PhoQ-PhoP variant library
Added: 10 µM Mg2+
Relative to: high Mg2+ state
Direction: higher = stronger signaling
target | fold induction
PhoP, residues 12 14 15 18 19 VHTVL (Escherichia coli, UniProt P23836) | 1.59
PhoP, residues 12 14 15 18 19 ICWRQ (Escherichia coli, UniProt P23836) | 3.75
PhoP, residues 12 14 15 18 19 TQCLL (Escherichia coli, UniProt P23836) | 3.42

Series 3
Target: Histone acetyltransferase KAT6A, both winged helices, GST fusion (KAT6A, Homo sapiens, UniProt Q92794, residues 1-181)
Method: protein binding microarray
Form: double-stranded DNA, one strand shown
Medium: in vitro
Tested at: not given
Setting: 8-mer, flanks averaged, mean of 2 arrays, mostly near background
Relative to: not given
Direction: higher = stronger binding
Target sequence (chain): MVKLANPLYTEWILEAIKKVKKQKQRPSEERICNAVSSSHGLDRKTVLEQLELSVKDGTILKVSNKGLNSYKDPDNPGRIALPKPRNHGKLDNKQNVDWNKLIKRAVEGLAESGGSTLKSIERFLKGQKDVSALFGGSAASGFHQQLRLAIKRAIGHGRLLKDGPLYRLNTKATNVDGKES
Sequence | E-score
CCATGTCC | 0.062
CAGCAGCA | -0.13
GCGTCGCC | 0.319
ATTAACTA | -0.0589
GGTCGACC | 0.279
GACAAAGA | -0.0634
CCTCTGAA | -0.144
GACGGGGA | 0.212
AAGATGTA | -0.0734
CGCGGGAG | 0.29
CATGTGGA | -0.0943
AATACTGA | -0.0461
CCTCCGAC | -0.0409
CACCAGAA | -0.17
AGTTGATA | -0.0784
AACTTTCT | -0.0966
GTCTAAAC | -0.0937
CCGCGATA | 0.256
GACTGTGA | -0.191
AGTTTTCG | -0.102
CTTAACAA | 0.00123
CACGCGAG | 0.193
GCCGCCGA | 0.309
CATCCCTC | -0.21

Series 4
Target: ABI1, truncated, D143A, DHFR fusion (Arabidopsis thaliana)
Method: DHFR PCA, deep sequencing
Medium: yeast
Setting: methotrexate growth selection, single substitutions
Added: (+)-ABA 710 µM
Relative to: wild-type fitted maximum
Direction: higher = stronger binding
Starting sequence: PYL1, truncated, DHFR fusion (Arabidopsis thaliana); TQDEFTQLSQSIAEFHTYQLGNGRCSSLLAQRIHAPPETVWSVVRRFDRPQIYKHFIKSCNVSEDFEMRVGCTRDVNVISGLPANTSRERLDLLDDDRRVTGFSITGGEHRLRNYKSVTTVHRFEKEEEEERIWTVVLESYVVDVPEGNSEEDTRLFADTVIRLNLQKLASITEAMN; partner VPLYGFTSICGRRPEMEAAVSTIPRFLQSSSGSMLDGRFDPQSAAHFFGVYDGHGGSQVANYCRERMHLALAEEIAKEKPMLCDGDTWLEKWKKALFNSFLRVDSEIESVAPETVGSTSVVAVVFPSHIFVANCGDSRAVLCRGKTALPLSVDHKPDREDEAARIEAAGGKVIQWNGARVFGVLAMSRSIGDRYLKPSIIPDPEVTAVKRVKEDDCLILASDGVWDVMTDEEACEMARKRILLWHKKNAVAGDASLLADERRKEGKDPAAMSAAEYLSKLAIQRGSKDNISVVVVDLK
Variant | relative binding score [%]
L156P | -6.58
R123T | 97.7
V43N | 77
L82Y | 40.9
I33R | -7.98
S171E | 108
D97I | 113
F47S | -2.75
R132W | 91.9
R113K | 110
C25G | 67.9
V136Y | 97.1
W41H | 0.722
V40A | 73.7
S59H | 93.6
G81K | 67.1

Repeated from above (series 3):
Sequence | E-score
GCGTCGCC | 0.319
ATTAACTA | -0.0589
GGTCGACC | 0.279
GACAAAGA | -0.0634
CCTCTGAA | -0.144
GACGGGGA | 0.212
AAGATGTA | -0.0734
CGCGGGAG | 0.29
